Assay results pooled from the literature.
Each numbered part is a random draw from the data of one study; scales do not carry over between parts.

Study 1
Target: Ras GTPase-activating protein-binding protein 1, C-terminal RGG region (G3BP1, Homo sapiens, UniProt Q13283)
Chain of UniProt Q13283 (whole entry, looked up): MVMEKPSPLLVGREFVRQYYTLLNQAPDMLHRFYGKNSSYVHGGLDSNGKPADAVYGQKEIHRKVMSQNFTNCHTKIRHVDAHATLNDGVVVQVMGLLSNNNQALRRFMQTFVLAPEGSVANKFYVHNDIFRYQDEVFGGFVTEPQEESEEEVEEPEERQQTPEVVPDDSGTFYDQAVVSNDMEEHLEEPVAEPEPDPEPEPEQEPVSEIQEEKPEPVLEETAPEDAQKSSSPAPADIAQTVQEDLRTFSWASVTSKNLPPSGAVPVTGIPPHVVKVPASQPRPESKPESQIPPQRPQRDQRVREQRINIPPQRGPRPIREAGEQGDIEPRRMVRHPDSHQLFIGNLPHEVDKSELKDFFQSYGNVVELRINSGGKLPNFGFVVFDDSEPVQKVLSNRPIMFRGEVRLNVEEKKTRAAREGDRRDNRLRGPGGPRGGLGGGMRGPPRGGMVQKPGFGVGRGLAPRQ
Technique: RNA Bind-n-Seq
Form: RNA
Matrix: in vitro
Concentration: 1 µM
Notes: whole 134-nt RNA, ends assumed
With: 150 mM KCl
Reference: input library
Direction: higher = stronger binding
All sequences stand within: GGGAGUUCUACAGUCCGACGAUC … UGGAAUUCUCGGGUGUCAAGG
Oligonucleotide	log2 enrichment
UAAAUUUAGAGGAGGAUCUGAUGGAUAUGGCAGUGGACGUGGAUUUGGGGAUGGCUAUAAUGGGUAUGGAGGAGGACCUGGAGGUGGCAA	-0.483
UGGGCCUGGUGGCAUGCGGGGAGGAAGAGGUGGCCUCAUGGAUCGUGGUGGUCCCGGUGGAAUGUUCAGAGGUGGCCGUGGUGGAGACAG	1.9
UUCUGGUCUGCUCACCAGAGGUUCUUCAAAUACUUAUGCAUAGCAUCCAAAGUUAAAAGGGUUGUGCAACUAGCUCGAGAGGAAAUCAAG	-1.77
AAGUCCUGUGCUACACAUCGUAUGUACCGAAUCGGGGCCCGGGGCCCGGGCCCGGGGAAAGUAUUAUGUUACGCCGUUCGGAUCUGCACU	-2.46
CACAGACAACACGCACCCACACAGACACAGAGGGAAGGGGUUUGGAUGGGGACAGGGUGCACAGCAGGGCGGGGUAGGACCCCAGCCCCU	-0.321
UCCUGUGCUACACAUCGUAUGUACCGAAUCAAACCCAAAUUUUUUUAAACCCCCCCAAAAAAGUAUUAUGUUACGCCGUUCGGAUCUGCA	-0.485
CAAGUCCUGUGCUACACAUCGUAUGUACCGAAUCGGGAGGGAAAAAAAGGGAGGGAAAGUAUUAUGUUACGCCGUUCGGAUCUGCACUUC	1.05
AGUCCUGUGCUACACAUCGUAUGUACCGAAUCGGGGUUUUUGGUUUUUGGGUUUUUGGAAAGUAUUAUGUUACGCCGUUCGGAUCUGCAC	-1.23
GUCCUGUGCUACACAUCGUAUGUACCGAAUCAAACCCCCAAACCCCCAAAUUUUUAAAAAAGUAUUAUGUUACGCCGUUCGGAUCUGCAC	-0.847
CACAGACAACACGCACCCACACAGACACAGAGGGAAGGGGUUGGGAUGGAAACAGGGUGCACAGCAGGGCGGGGUAGGACCCCAGCCCCU	-0.347
AAGUCCUGUGCUACACAUCGUAUGUACCGAAUCGGGGAAAGGGGAAAGGGGUGGGGAAAGUAUUAUGUUACGCCGUUCGGAUCUGCACUU	2.98
UGGCCCUGGUGGCAUGCGGGGAGGAAGAGGUGGCCUCAUGGAUCGUGGUGGUCCCGGUGGAAUGUUCAGAGGUGGCCGUGGUGGCGACAG	3.37
UCCUGUGCUACACAUCGUAUGUACCGAAUCGGGGAAAAAGGGGUUUUUGGGGUUUGGGGAAAGUAUUAUGUUACGCCGUUCGGAUCUGCA	1.67
GCAGGAAGUAAAAACAAAUGGAAAUGCUUCGGAUAGUGGCAGGGGUGGGGGUUGCUAAGGAAAGGGUGGGAUGGGAGUGCGUAAAGAGUU	1.63

Study 2
Target: PABPC1L2, full length, GST fusion (mouse, UniProt A0ABA7IW68)
Technique: RNAcompete
Form: RNA
Matrix: in vitro
Concentration: 20 nM
Notes: 7-mer, probes averaged, single round
Reference: mean of 7-mers
Direction: higher = stronger binding
Target sequence (chain): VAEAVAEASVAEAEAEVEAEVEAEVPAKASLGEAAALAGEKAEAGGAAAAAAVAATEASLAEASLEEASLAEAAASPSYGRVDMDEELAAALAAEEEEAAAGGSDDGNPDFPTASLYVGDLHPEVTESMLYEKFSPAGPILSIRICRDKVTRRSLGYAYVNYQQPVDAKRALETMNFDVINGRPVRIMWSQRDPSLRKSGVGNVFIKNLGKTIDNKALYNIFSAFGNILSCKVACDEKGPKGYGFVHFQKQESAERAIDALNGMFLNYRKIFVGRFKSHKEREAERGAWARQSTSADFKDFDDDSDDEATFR
Oligonucleotide	7-mer Z-score
AUCCCGC	-0.45
UCACGGU	-0.193
CGAUGGU	-0.0464
GGGCCCU	-0.238
CAAGCAG	-0.166
CAUAAAG	2.08
GUCAAAA	2.36
AUGUGGU	-0.108
UCCGUUU	-0.514
CCUCCCG	-0.463
CGGGCAG	0.416
GCAUCGC	-0.293

Study 3
Target: Histone acetyltransferase KAT6A, winged helix 1, GST fusion (KAT6A, Homo sapiens, UniProt Q92794, residues 1-85)
Technique: protein binding microarray
Form: double-stranded DNA, one strand shown
Matrix: in vitro
Concentration: not given
Notes: 8-mer, flanks averaged, mean of 2 arrays, mostly near background
Reference: not given
Direction: higher = stronger binding
Target sequence (chain): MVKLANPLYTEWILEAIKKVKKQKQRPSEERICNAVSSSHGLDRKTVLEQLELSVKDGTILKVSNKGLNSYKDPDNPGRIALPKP
Oligonucleotide	E-score
AATAGCAC	-0.105
ATATGAGA	-0.192
GTGGTAAA	-0.271
GGGAACAC	-0.0831
TCACCGAA	-0.193
ATCGGCAG	0.139
CATTTATA	-0.0882
ATTGAAAA	-0.205
GGCATGCA	0.0266
GCCCATCA	-0.105
CATGGCAA	-0.0432
TCTGCCCA	-0.274
CTTACTTC	-0.0506
GCACAACC	-0.111
GCCATTGA	-0.0444
ACATCGGT	-0.0377

Study 4
Target: Interferon regulatory factor 3, full length, phosphomimetic (IRF3, Homo sapiens, UniProt Q14653, residues 1-427, S386D/S396D/S398D/S402D/T404D/S405D)
Technique: protein-binding microarray
Form: double-stranded DNA, one strand shown
Matrix: in vitro
Concentration: 2540 nM top
Notes: 60-bp whole probe
With: salmon DNA 0.4 mg/ml
Reference: random background probes
Direction: higher = stronger binding
All sequences stand within: GCCTAGCAC … GTCTTGATTCGCTTGACGCTGCTG
Construct (chain): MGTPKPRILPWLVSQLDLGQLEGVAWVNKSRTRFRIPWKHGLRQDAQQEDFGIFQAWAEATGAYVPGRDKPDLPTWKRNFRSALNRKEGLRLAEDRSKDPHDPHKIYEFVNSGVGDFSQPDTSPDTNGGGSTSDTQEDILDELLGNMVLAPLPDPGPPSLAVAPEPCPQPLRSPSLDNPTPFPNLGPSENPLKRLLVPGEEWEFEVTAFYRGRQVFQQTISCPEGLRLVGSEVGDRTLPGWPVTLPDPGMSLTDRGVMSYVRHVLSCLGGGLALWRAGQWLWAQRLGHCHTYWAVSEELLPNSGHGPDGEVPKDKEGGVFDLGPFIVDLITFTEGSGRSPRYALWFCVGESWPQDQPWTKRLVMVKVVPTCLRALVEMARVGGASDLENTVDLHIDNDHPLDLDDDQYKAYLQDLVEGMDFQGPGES
Oligonucleotide	fitted relative affinity [z-score]
TTAGGTATCGACTTTCGGGTAGTGCTA	1.08
ATCATTTTTGCTTACGATGCGTGCTAG	1.03
TCAGGTTGAACATGAACACTGTGCTAG	-0.244
TTGCCTTTTGCTTTACTGATGTGCTAG	4.6
CAAAGAAAAAGAAAAAAAAAGGTGCTA	0.069
TAGGCTCTGTGCTTTCCTGATGTGCTA	-0.464
AGACGAATCATATCAAAATTGTGCTAG	0.453
GACGGACTGCTTCTCGTGACGTGCTAG	-0.283
GACGGACTGGACTATCGGGGCGTGCTA	-0.573
ATCATTTTCTCTGTTCTAGAGTGCTAG	2.13
TTAGATTACAGTTTCGATTAGTGCTAG	3.58
CTAGGTTTCGACTATCGGTTAGTGCTA	2.55
TCCACTTTGACTTAAGAGGCGTGCTAG	0.387

Study 5
Target: RNA binding protein fox-1 homolog 2, RRM domain, GST-SBP tag (RBFOX2, Homo sapiens, UniProt O43251-10, residues 100-194)
Technique: RNA Bind-n-Seq
Form: RNA
Matrix: in vitro
Concentration: 365 nM
Notes: natural RNA segment, single round, ends assumed
Reference: no-protein control
Direction: higher = stronger binding
All sequences stand within: GGGAGUUCUACAGUCCGACGAUC … UGGAAUUCUCGGGUGCCAA
Residues (chain): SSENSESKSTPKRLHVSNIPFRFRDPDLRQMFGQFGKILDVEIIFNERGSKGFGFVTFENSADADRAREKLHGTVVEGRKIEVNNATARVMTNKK
Oligonucleotide	RBNS enrichment (R)
UUUGUUAGCCACCUCCCCACCCACAUACAUUUCUGCCAGUGUUCACAAUGACACUCAGCGGUCAUGUCUGGACAUGAGUGCCCAGGGAAUAUGCCCAAGCUAUGCCUUGU	0.254
AGGAAAUCACCAGCUUUGGCAUCUGACCAACAAACAGUGAGUGGGAGACGUGAUUUCCGAUGCGCAUCUUCAGAGUCAAACACACCCUCCCUCGUGUACAACCAAAGAAC	0.4
AAGCUGCAGCACCUUUAUGUACAGAACAAUGUCACAGUGUGUGUGUGUGUGUGUGUGUGAGCGAGCAUGUGCUGUCUGCAUAUGGAAAUAACUACAGCACAGGCUACCUU	1.08
GCUGCAGGGGGUGGGCUGCCUGCCUGCUCUGAGCUCUCUCUUGCACGCUCUCUCUUCUCUCCCAGGCUCUGGCUCAUGCACAUGCAACAGGUGCGUCUGUCUAUAUGUCU	7.86
CAGGACCCCUCAGCUCCCCGGCACUGCAGUCUGCAGAGUUCUCCUGGAGGCAGGGGCUGCUGCCUUGUUUCACCUUCCAUGUCAGGCCAGCCUGUCCCUGAAAGAGAAGA	1.61
AGGGUAAACUUUUGAGAUUUUUUUUUUUAAAACAAUUUUAUGUUUGUGCACUUUGUGUUAAUCUCACCAAAAAUCAUCAUAGGAAAGGAUUAUGGUUUUUAGUUAUGACA	0.666
CUUUUAAGGCAGCAGGGAGGCCUGGGUGCGAAGCAUGUUGGCUUGGCCCUUCACGGUCCUGGAGGGAGGUGAGGCUGGCCUUGGAAGGCGUGCCCUGGAGAGGUCUUGGG	7.22
AUCUGGACUUAUUUUUGGACUUAGUGCAACAGGUUGAGGCUAAAACAAAUCUCAGAACAGUCUGAAAUACCUUUGCCUGGAUACCUCUGGCUCCUUCAGCAGCUAGAGCU	0.422
GAAAAUAUGUUUUUGCUGCUUUAUAUAAAAGUGAUUUUUAAGUUAUUUUAAAGAUCUAGCUUCCCUAUUUGAUUAAGAUUGCCAUCUUGCUUUUGGGCAGAAAAAAGUAG	0.514
CCAUAGAGUUUUCAAAAUGUGAAUCUUUGGAAGCCUUGAGUUCAGAAUCUGCUGCUCUGGAAUAUUUCCCUUCGAUCUUAUCUCAGUCACUUCGUUUUUGAGAAGAGUGA	0.391
ACCAUGAGAAAAUAGCUUGGUCUGACCACAAUCUCCUGCUCAUGACUCUCUGAGGCUUCUUGUUAAAAUGGUUGCCUUUGUUUCUCAGUGAUAGCGAUACAGCUCAGGAA	0.378
UCACUUAGCAACAAAGUACCUUCUAAUUUCCAAUAGUCCGUGAAAGUUGGGGCUGAAGUACCUAAGUGUGAAUGUCUCUCCCGUUAAACUGAGUGUAGAAAUCUGAAUUU	0.393

A few entries again (study 5):
Oligonucleotide	RBNS enrichment (R)
CUUUUAAGGCAGCAGGGAGGCCUGGGUGCGAAGCAUGUUGGCUUGGCCCUUCACGGUCCUGGAGGGAGGUGAGGCUGGCCUUGGAAGGCGUGCCCUGGAGAGGUCUUGGG	7.22
GCUGCAGGGGGUGGGCUGCCUGCCUGCUCUGAGCUCUCUCUUGCACGCUCUCUCUUCUCUCCCAGGCUCUGGCUCAUGCACAUGCAACAGGUGCGUCUGUCUAUAUGUCU	7.86
CCAUAGAGUUUUCAAAAUGUGAAUCUUUGGAAGCCUUGAGUUCAGAAUCUGCUGCUCUGGAAUAUUUCCCUUCGAUCUUAUCUCAGUCACUUCGUUUUUGAGAAGAGUGA	0.391
UCACUUAGCAACAAAGUACCUUCUAAUUUCCAAUAGUCCGUGAAAGUUGGGGCUGAAGUACCUAAGUGUGAAUGUCUCUCCCGUUAAACUGAGUGUAGAAAUCUGAAUUU	0.393
AGGAAAUCACCAGCUUUGGCAUCUGACCAACAAACAGUGAGUGGGAGACGUGAUUUCCGAUGCGCAUCUUCAGAGUCAAACACACCCUCCCUCGUGUACAACCAAAGAAC	0.4
UUUGUUAGCCACCUCCCCACCCACAUACAUUUCUGCCAGUGUUCACAAUGACACUCAGCGGUCAUGUCUGGACAUGAGUGCCCAGGGAAUAUGCCCAAGCUAUGCCUUGU	0.254
AUCUGGACUUAUUUUUGGACUUAGUGCAACAGGUUGAGGCUAAAACAAAUCUCAGAACAGUCUGAAAUACCUUUGCCUGGAUACCUCUGGCUCCUUCAGCAGCUAGAGCU	0.422
ACCAUGAGAAAAUAGCUUGGUCUGACCACAAUCUCCUGCUCAUGACUCUCUGAGGCUUCUUGUUAAAAUGGUUGCCUUUGUUUCUCAGUGAUAGCGAUACAGCUCAGGAA	0.378
AAGCUGCAGCACCUUUAUGUACAGAACAAUGUCACAGUGUGUGUGUGUGUGUGUGUGUGAGCGAGCAUGUGCUGUCUGCAUAUGGAAAUAACUACAGCACAGGCUACCUU	1.08
AGGGUAAACUUUUGAGAUUUUUUUUUUUAAAACAAUUUUAUGUUUGUGCACUUUGUGUUAAUCUCACCAAAAAUCAUCAUAGGAAAGGAUUAUGGUUUUUAGUUAUGACA	0.666
GAAAAUAUGUUUUUGCUGCUUUAUAUAAAAGUGAUUUUUAAGUUAUUUUAAAGAUCUAGCUUCCCUAUUUGAUUAAGAUUGCCAUCUUGCUUUUGGGCAGAAAAAAGUAG	0.514
